Measured values collected from several papers.
Lines come from different studies, so protocols differ. ± gives the spread as reported.
UCHL1: Ubiquitin carboxyl-terminal hydrolase isozyme L1 (UCHL1, Homo sapiens, UniProt P09936)
Chain of UniProt P09936 (whole entry, looked up): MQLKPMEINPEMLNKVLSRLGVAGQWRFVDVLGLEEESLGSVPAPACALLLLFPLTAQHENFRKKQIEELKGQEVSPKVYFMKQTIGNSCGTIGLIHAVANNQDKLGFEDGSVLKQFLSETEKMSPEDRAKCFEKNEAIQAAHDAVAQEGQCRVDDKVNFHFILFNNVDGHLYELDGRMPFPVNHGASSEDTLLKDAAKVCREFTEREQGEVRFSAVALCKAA

| target or system | assay | system | conditions | how to read | measurement | value | SMILES |
| --- | --- | --- | --- | --- | --- | --- | --- |
| – | – | female C57BL/6 mice, cerebrospinal fluid | subcutaneous, 50 mg/kg | – | AUC(0-inf) | 1980 ng·h/mL | COc1cccc2c(N3CCC(CCP(=O)(O)O)CC3)ncnc12 |
| – | UHPLC-MS/MS | C57BL/6 mice, female, plasma | oral, 0.4 mg/kg | – | AUC(0-inf) | 200 ng·h/mL | Nc1ncn([C@H]2C[C@H](O)[C@@H](CO)O2)c(=O)n1 |
| – | – | FVB mice Abcb1a/b knockout, brain | intravenous, 20 mg/kg | – | AUC(0-inf) | 9830 ± 1290 ng·h/mL | CC(C)[C@@H](CS(=O)(=O)C(C)C)N1C(=O)[C@@](C)(CC(=O)O)C[C@H](c2cccc(Cl)c2)[C@H]1c1ccc(Cl)cc1 |
| – | – | Balb/c mice male, plasma | oral, 10 mg/kg | – | AUC(0-inf) | 2730 ± 410 ng·h/mL | OCc1nc2ccc(NCc3ccc(C(F)(F)F)cc3)cc2[nH]1 |
| – | – | C57BL/6 mice, epithelial lining fluid | intraperitoneal, 10 mg/kg | – | AUC(0-inf) | 4490 ng·h/mL | CCN1CCN(Cc2ccc(NC(=O)c3ccc(C)c(NC(=O)c4cncc(-c5cccs5)c4)c3)cc2C(F)(F)F)CC1 |
| – | – | female BALB/c mice, plasma | intraperitoneal, 30 mg/kg | – | AUC(0-inf) | 45600 ng·h/mL | Cc1cc2sc(N)nc2c2cccnc12 |
| UCHL1 | covalent, intact protein LC-MS | – | 12.5 µM | – | labelling | 12.8% | CC(c1ccc(C(F)(F)F)c(Cl)c1)N(C)C(=O)CCl (stereo not drawn) |
| – | – | mice, brain | intraperitoneal, 40 mg/kg | – | AUC(0-inf) | 23000 ng·h/g | Cc1[nH]c(C)c(S(=O)(=O)Nc2ccc(C(F)(F)F)c(Cl)c2)c1C(=O)N1CCC(F)(F)C1 |
| – | – | female Balb/c mice, plasma | oral, 12.5 mg/kg, mean, added: ABT | – | AUC(0-inf) | 28800 ng·h/mL | c1ccc(-c2nc(N3CCC(c4ccccn4)C3)c3ccccc3n2)nc1 (stereo not drawn) |
| UCHL1 | covalent, intact protein LC-MS | – | 12.5 µM | – | labelling | 9.89% | N#CC(=Cc1ccc(F)c(F)c1)C(=O)NC1CCCCC1 |
| – | – | male C57BL/6 mice, brain | intraperitoneal, 10 mg/kg | – | AUC(0-inf) | 31.4 ng·h/g | CCOC(=O)c1cc(Cl)cc(NC(=O)c2sc(Cl)cc2S(=O)(=O)N(C)c2ccc(OCC)c(OC)c2)c1 |
| – | – | C57BL/6 mice, plasma | intraperitoneal, 85 µmol/kg single dose | – | AUC(0-inf) | 92.7 µM·h | CC1(C)CC[C@]2(C(=O)O)CC[C@]3(C)C(=CC[C@@H]4[C@@]5(C)C[C@@H](O)[C@H](OC(=O)/C=C/c6ccc(O)cc6)C(C)(C)[C@@H]5CC[C@]43C)[C@@H]2C1 (relative stereo) |
| – | – | male C57BL/6 mice, brain | intraperitoneal, 10 mg/kg | – | AUC(0-inf) | 25.1 ng·h/g | CCOc1ccc(N(C)S(=O)(=O)c2cc(Cl)sc2C(=O)Nc2cc(Cl)cc(C(=O)O)c2)cc1OC |
| – | – | CD-1 mice, brain | oral, 10 mg/kg | – | AUC(0-inf) | 5490 ng·h/g | Cc1cc(NC(=O)c2cccc3cc(-c4cccc5[nH]nc(N)c45)ccc23)ccc1F |
| Trypanosoma cruzi | reporter translation, Renilla luciferase mRNA translation | cell-free extract | 40 µM | reference: DMSO | inhibition | 9% | CCCn1ncc(CN2CCCC(C(=O)c3cccc(OC(C)C)c3)C2)c1C (stereo not drawn) |

Excerpt of the above:
| target or system | assay | system | conditions | how to read | measurement | value | SMILES |
| --- | --- | --- | --- | --- | --- | --- | --- |
| – | – | female BALB/c mice, plasma | intraperitoneal, 30 mg/kg | – | AUC(0-inf) | 45600 ng·h/mL | Cc1cc2sc(N)nc2c2cccnc12 |
